{"data": "Experimental data pooled from the literature", "note": "A part holds a random share of what one study measured."}
{"data": "Block 1", "target": "Sal-like protein 4, full length isoform A (SALL4, Homo sapiens, UniProt Q9UJQ4, residues 1-1053)", "method": "universal PBM", "form": "double-stranded DNA, one strand shown", "medium": "in vitro", "tested at": "600 nM", "setting": "8-mer, flanks averaged, mean of replicates", "reading": "higher = stronger binding", "chain of UniProt Q9UJQ4 (whole entry, looked up)": "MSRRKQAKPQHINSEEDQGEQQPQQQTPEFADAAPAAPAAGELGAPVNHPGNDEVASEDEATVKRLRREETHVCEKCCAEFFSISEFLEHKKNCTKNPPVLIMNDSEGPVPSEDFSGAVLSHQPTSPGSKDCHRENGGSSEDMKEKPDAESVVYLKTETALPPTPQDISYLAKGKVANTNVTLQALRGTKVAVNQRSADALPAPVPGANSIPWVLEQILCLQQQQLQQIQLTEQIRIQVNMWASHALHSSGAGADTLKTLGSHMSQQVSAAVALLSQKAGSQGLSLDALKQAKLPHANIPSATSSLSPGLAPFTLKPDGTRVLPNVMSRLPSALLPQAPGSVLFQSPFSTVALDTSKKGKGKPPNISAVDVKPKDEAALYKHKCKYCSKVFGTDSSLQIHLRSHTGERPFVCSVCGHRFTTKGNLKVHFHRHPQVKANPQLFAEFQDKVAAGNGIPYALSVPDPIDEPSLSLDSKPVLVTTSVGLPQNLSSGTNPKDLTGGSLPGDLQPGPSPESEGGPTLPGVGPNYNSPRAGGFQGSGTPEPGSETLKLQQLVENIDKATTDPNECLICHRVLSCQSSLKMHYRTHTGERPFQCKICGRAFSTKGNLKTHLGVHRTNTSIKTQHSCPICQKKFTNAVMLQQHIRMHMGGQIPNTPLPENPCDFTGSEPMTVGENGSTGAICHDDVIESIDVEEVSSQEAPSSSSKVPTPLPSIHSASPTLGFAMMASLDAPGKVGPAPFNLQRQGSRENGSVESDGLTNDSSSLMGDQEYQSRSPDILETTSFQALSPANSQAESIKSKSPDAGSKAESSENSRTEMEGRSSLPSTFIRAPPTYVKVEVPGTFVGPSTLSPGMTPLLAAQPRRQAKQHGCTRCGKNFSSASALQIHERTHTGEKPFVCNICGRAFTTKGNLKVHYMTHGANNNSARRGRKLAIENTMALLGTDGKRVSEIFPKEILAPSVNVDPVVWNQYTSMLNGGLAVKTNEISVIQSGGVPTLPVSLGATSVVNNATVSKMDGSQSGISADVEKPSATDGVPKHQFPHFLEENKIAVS"}
{"Oligonucleotide": "ATAGGCAG", "E-score": 0.24}
{"Oligonucleotide": "GTGGCAGA", "E-score": -0.262}
{"Oligonucleotide": "CTGACTGA", "E-score": -0.144}
{"Oligonucleotide": "GCTAGCAA", "E-score": -0.129}
{"Oligonucleotide": "CCTTACAG", "E-score": -0.0425}
{"Oligonucleotide": "GAATCGCC", "E-score": -0.233}
{"Oligonucleotide": "AGATAGCG", "E-score": -0.0115}
{"Oligonucleotide": "AGTTTCTC", "E-score": -0.0207}
{"Oligonucleotide": "CGATTACG", "E-score": -0.0642}
{"Oligonucleotide": "ATGTCCAA", "E-score": 0.147}
{"Oligonucleotide": "GCCTCACA", "E-score": 0.0352}
{"Oligonucleotide": "CACCAGAC", "E-score": -0.224}
{"Oligonucleotide": "CGATAGTA", "E-score": -0.0029}
{"Oligonucleotide": "TCGGTACA", "E-score": 0.0585}
{"Oligonucleotide": "CCGGGGCG", "E-score": -0.414}
{"Oligonucleotide": "ATGATACG", "E-score": 0.236}
{"Oligonucleotide": "CGTTCAAC", "E-score": 0.0369}
{"Oligonucleotide": "GCATTCGA", "E-score": -0.0128}
{"Oligonucleotide": "CCATACGA", "E-score": 0.0963}
{"Oligonucleotide": "GCGGGTAA", "E-score": -0.254}
{"Oligonucleotide": "GGGCGCGA", "E-score": -0.342}
{"Oligonucleotide": "CCCTTCTA", "E-score": -0.125}
{"Oligonucleotide": "CATAGTGG", "E-score": 0.0162}
{"Oligonucleotide": "CTTATAGC", "E-score": 0.113}
{"Oligonucleotide": "GCAATCCA", "E-score": 0.0505}
{"data": "Block 2", "target": "PABPC1L2, full length, GST fusion (mouse, UniProt A0ABA7IW68)", "method": "RNAcompete", "form": "RNA", "medium": "in vitro", "tested at": "20 nM", "setting": "7-mer, probes averaged, single round", "baseline": "mean of 7-mers", "reading": "higher = stronger binding", "Construct (chain)": "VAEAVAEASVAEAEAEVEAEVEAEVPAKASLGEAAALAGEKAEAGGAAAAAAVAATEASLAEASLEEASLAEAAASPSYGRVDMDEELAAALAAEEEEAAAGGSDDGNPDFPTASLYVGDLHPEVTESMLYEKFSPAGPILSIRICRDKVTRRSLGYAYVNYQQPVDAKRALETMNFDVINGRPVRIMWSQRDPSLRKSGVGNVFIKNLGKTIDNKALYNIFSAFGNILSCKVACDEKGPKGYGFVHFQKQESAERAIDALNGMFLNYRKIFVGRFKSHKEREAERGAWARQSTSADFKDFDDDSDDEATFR"}
{"Oligonucleotide": "UUAGCAG", "7-mer Z-score": -0.215}
{"Oligonucleotide": "GUGGGCC", "7-mer Z-score": -0.0355}
{"Oligonucleotide": "GCUGACA", "7-mer Z-score": -0.0428}
{"Oligonucleotide": "GGACGCG", "7-mer Z-score": 0.162}
{"Oligonucleotide": "UGUUCUG", "7-mer Z-score": -0.474}
{"Oligonucleotide": "UCAUGUA", "7-mer Z-score": -0.246}
{"Oligonucleotide": "CCUUAUC", "7-mer Z-score": -0.387}
{"Oligonucleotide": "CGUGGGU", "7-mer Z-score": -0.193}
{"Oligonucleotide": "CUUGUCU", "7-mer Z-score": -0.371}
{"Oligonucleotide": "GUGGAUA", "7-mer Z-score": 0.341}
{"Oligonucleotide": "ACACCCU", "7-mer Z-score": -0.195}
{"Oligonucleotide": "UUGGGUA", "7-mer Z-score": -0.0573}
{"Oligonucleotide": "UUGGUAA", "7-mer Z-score": -0.103}
{"Oligonucleotide": "ACCAUGA", "7-mer Z-score": -0.012}
{"Oligonucleotide": "CUUCGAA", "7-mer Z-score": -0.298}
{"Oligonucleotide": "GAGAGUU", "7-mer Z-score": -0.309}
{"Oligonucleotide": "GCGUCAA", "7-mer Z-score": -0.012}
{"Oligonucleotide": "AUCUACG", "7-mer Z-score": -0.0989}
{"Oligonucleotide": "GCGGGAG", "7-mer Z-score": 0.253}
{"Oligonucleotide": "AUAAUUC", "7-mer Z-score": 0.00254}
{"Oligonucleotide": "ACCUGGU", "7-mer Z-score": -0.325}
{"Oligonucleotide": "CGAACCA", "7-mer Z-score": -0.119}
{"Oligonucleotide": "UCGAGGG", "7-mer Z-score": 0.162}
{"data": "Block 3", "target": "RING finger protein unkempt homolog, zinc fingers 1-6, GST-SBP tag (UNK, Homo sapiens, UniProt Q9C0B0, residues 30-357)", "method": "RNA Bind-n-Seq", "form": "RNA", "medium": "in vitro", "tested at": "not given", "setting": "RNA with constant flanks, human and mouse sites, ends assumed", "baseline": "input RNA pool", "reading": "higher = stronger binding", "all sequences stand within": "GGGAGUUCUACAGUCCGACGAUC … CAACAGAGGAUUGAGCAUCA", "chain of UniProt Q9C0B0 (30-357, looked up)": "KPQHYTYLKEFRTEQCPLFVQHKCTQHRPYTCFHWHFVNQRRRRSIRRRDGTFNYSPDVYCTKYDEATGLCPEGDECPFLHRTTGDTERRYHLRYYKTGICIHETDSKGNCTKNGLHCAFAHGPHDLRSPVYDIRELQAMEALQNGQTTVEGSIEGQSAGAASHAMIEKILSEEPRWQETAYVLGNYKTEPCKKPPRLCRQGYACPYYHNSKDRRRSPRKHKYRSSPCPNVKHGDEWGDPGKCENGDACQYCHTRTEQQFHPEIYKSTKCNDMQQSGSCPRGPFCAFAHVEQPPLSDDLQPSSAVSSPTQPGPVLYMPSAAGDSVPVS"}
{"Oligonucleotide": "GGUUCAAGUGAUUUAUUAUGUGACUUGAAUACAAGUUCUUAUGACACUUCUGCUCUUUGUAAUGGCUUUCCUUUGGAAAAUAUAUGUACCCAGGUCAUAGACCAGAAUCAGAAUUUACAU", "bound/input enrichment [ratio]": 0.113}
{"Oligonucleotide": "AGGCAGGGCAGUCGCCUGGUGGAGAUCUGCAAGGUGGCGGUAGCCACUCUGAGCCAUGAGCAGAUGAUCGACCUCCUGAGAACAUCUGUCACGGUGAAGGUUGUCAUCAUUCCCCCGCAU", "bound/input enrichment [ratio]": 0.117}
{"Oligonucleotide": "GUGCUCCCUCGGGAUCUCUUCCAAAAGCUUUUCCGACAGGACCUGCUCGUGGCAAGUUUGUUUAGAAAUUUUUUAUUGGCAGAAAGAAUCAUGAGGUCAUAUAACUGCACCCCAGUAAGC", "bound/input enrichment [ratio]": 0.551}
{"Oligonucleotide": "GUGAAGAUGAAGAUGAAAUACUACAUCGAGUACAUGGAGAGCACUCGAGAUGAUAGUCCCCUUUACAUCUUUGACAGCAGCUAUGGUGAACACCCUAAAAGAAGGAAACUUUUGGAAGAC", "bound/input enrichment [ratio]": 0.321}
{"Oligonucleotide": "GAAUAUAUAGAUCAAGGUCGAAAUCCCCAGCUCUACACCAAAGAGUGCCUGGAGAGGGCUCUAGCUAAAAAUGAGCAAGUUAAAGGCAAGAUCGACACCAUGAAGAAAUUUAAAAGCCUG", "bound/input enrichment [ratio]": 0.247}
{"Oligonucleotide": "UAACAUUUUUUUAAAAUAUUGAUUGAUUGAUUGAUUGAUUCUAUGUAUGUGAGUACACUGUAGCUGUACAGAUGGUUGUGAGCCUUCAUGUGGUUGUUGGGGAUUGAAUUUUAGGACCUC", "bound/input enrichment [ratio]": 1.33}
{"Oligonucleotide": "GAUGACGAAACAGUUGAUAGCCUAGGACCCCUAGAGAAGGGACAAGUCAAAAACGAGGCUCUCAGAGAACUGAGAGUGGAACUCAGCCGGAAGCACCAGGCUCGGGGACUUGAUGGAUUC", "bound/input enrichment [ratio]": 0.278}
{"Oligonucleotide": "GAGAGACAUUUCUCCAUCUCAGGAUGCCCGCUGUAUCAUAACCUCUCAGCUGACGAAUGCAAGGCACCAACAGAGAGACAGCUGCGGUAUAAGGAAAAGGUGGCUGAACUCAGGAAGAAA", "bound/input enrichment [ratio]": 0.223}
{"data": "Block 4", "target": "Histone acetyltransferase KAT6A, winged helix 1, GST fusion (KAT6A, Homo sapiens, UniProt Q92794, residues 1-85)", "method": "protein binding microarray", "form": "double-stranded DNA, one strand shown", "medium": "in vitro", "tested at": "not given", "setting": "8-mer, flanks averaged, mean of 2 arrays, mostly near background", "baseline": "not given", "reading": "higher = stronger binding", "Target sequence (chain)": "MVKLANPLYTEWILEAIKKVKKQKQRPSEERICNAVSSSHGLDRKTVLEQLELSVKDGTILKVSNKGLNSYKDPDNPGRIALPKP"}
{"Oligonucleotide": "AGTGGTGC", "E-score": -0.19}
{"Oligonucleotide": "AATTTGGT", "E-score": -0.231}
{"Oligonucleotide": "GGTCGAAA", "E-score": -0.0953}
{"Oligonucleotide": "AGTGCTTG", "E-score": -0.0781}
{"Oligonucleotide": "GGCCCCAC", "E-score": 0.0132}
{"Oligonucleotide": "AATTTTAA", "E-score": -0.224}
{"Oligonucleotide": "AGAGCCAG", "E-score": -0.273}
{"Oligonucleotide": "AACCCTAA", "E-score": -0.258}
{"Oligonucleotide": "CGTAGTTA", "E-score": 0.0799}
{"Oligonucleotide": "TAGCGATA", "E-score": 0.0166}
{"Oligonucleotide": "CATATATA", "E-score": -0.18}
{"Oligonucleotide": "CAGCACAG", "E-score": -0.187}
{"Oligonucleotide": "AGTGGGAG", "E-score": -0.276}
{"Oligonucleotide": "CCAGCCAG", "E-score": -0.186}
{"Oligonucleotide": "GGATTGGA", "E-score": -0.226}
{"Oligonucleotide": "CCGGTGGA", "E-score": 0.191}
{"Oligonucleotide": "CCTGCCCG", "E-score": 0.159}
{"Oligonucleotide": "CCAACTCC", "E-score": -0.127}
{"Oligonucleotide": "CAGGGGGA", "E-score": -0.155}
{"Oligonucleotide": "CAGACTTC", "E-score": -0.319}
{"Oligonucleotide": "GGTCCGAC", "E-score": 0.193}
{"Oligonucleotide": "GAGACAAC", "E-score": -0.152}
{"Oligonucleotide": "GCAACGAC", "E-score": 0.0635}
{"Oligonucleotide": "ACAGTGGG", "E-score": -0.208}
{"Oligonucleotide": "AATCAAAA", "E-score": -0.156}
{"data": "Block 5", "target": "RNA binding protein fox-1 homolog 2, RRM domain, GST-SBP tag (RBFOX2, Homo sapiens, UniProt O43251-10, residues 100-194)", "method": "RNA Bind-n-Seq", "form": "RNA", "medium": "in vitro", "tested at": "365 nM", "setting": "natural RNA segment, single round, ends assumed", "baseline": "no-protein control", "reading": "higher = stronger binding", "all sequences stand within": "GGGAGUUCUACAGUCCGACGAUC … UGGAAUUCUCGGGUGCCAA", "Target sequence (chain)": "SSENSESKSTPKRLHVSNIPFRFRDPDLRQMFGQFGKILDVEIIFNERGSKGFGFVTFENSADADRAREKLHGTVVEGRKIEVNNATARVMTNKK"}
{"Oligonucleotide": "CGUUCCCAAGGGAGGGGCCUCUGAGGUCCUUCUGCCUUGUUGAUGAAGAGUGGUUGGUUGUAGAGCCCCCACCUUCAGAACUGCCUGGCCCAGCUGGAAACCCAGAGUCU", "RBNS enrichment (R)": 0.282}
{"Oligonucleotide": "AGUGGGGGAUGGGUCCUCUAGACUUGAGGGGCUACCCUGGGAAGCUGCCGUAGCUUCAGCCAGGCAAGAAAGCUUCCUUCAACCUGCAUAGCCGGUGGGUGAGGAGAUUC", "RBNS enrichment (R)": 0.419}
{"Oligonucleotide": "GUAGCCUGAGCAGAGAAGGAGCCCCAAGGCAGAAGCUGGGGCCUGCUCCCGCACUCUGAGAAGUGGGUCAGGUGAUGAUCCCUGCACUUGAUUGAGAUCAGAAUCCAUCA", "RBNS enrichment (R)": 0.515}
{"Oligonucleotide": "UUUGAGUGAAUGGCAGGAAAGGGCCAUCUCCAUUGAGAUGAUUAAGUGAACCAAACUAGUUCUCAGAAUUCUACAGAGAAGGAGGGAAUCAGACUGAGGAAGCUGUGACA", "RBNS enrichment (R)": 0.247}
{"Oligonucleotide": "CCUUCCCUCCAGGACCUGCCCGUGUGAAGACCCCCCGGAGUGCUGAGCUUCAGGGCUGCGUGGAAAGAGUUUUUACUCUCUUUUUCUAGCCUGUAUACCAGGCUUUUCCC", "RBNS enrichment (R)": 0.383}
{"Oligonucleotide": "AAAAUUCAGAAGUUAAUGGUUUUUUGUAAGCACAAAAGAAGUAUGGUAGAAAUUAAUCUUAACAAGACUUUAUGAGGCAGGAUCAAAUCCUAGUGGGCCUGAGCAGGUUU", "RBNS enrichment (R)": 1.85}
{"Oligonucleotide": "CCUGCACACGUACAGGUCAACAGCCUUCUCCCUCCUAAGAUGGACUUAAUUCAGACAGCCACUGCUUUCAGCCCCGAUUUUGGCCAGAAAGAAAAAAUACUUAUUUUUAC", "RBNS enrichment (R)": 0.553}
{"Oligonucleotide": "UAGCAAUCUACCUUAUAUAGAGCCUUCAGAAACUGUGAGUGGAAAUGAAUGCGCAGCGUAUGACUGUUGGUGAUAAGUGUAUCUGUGUGAGUGUGUGCAACUACUUGUGU", "RBNS enrichment (R)": 2.24}
{"note": "A few entries again (block 1):"}
{"Oligonucleotide": "TCGGTACA", "E-score": 0.0585}
{"Oligonucleotide": "CCGGGGCG", "E-score": -0.414}
{"Oligonucleotide": "ATGATACG", "E-score": 0.236}
{"Oligonucleotide": "CGTTCAAC", "E-score": 0.0369}
{"Oligonucleotide": "GCATTCGA", "E-score": -0.0128}
{"Oligonucleotide": "CCATACGA", "E-score": 0.0963}
{"Oligonucleotide": "GCGGGTAA", "E-score": -0.254}
{"Oligonucleotide": "GGGCGCGA", "E-score": -0.342}
{"Oligonucleotide": "CCCTTCTA", "E-score": -0.125}
